Assay results of several laboratories.
Numbered parts are unrelated; each lists some results of a single study. Substitutions count along the parent as printed.
Chain of UniProt O00329 (whole entry, looked up): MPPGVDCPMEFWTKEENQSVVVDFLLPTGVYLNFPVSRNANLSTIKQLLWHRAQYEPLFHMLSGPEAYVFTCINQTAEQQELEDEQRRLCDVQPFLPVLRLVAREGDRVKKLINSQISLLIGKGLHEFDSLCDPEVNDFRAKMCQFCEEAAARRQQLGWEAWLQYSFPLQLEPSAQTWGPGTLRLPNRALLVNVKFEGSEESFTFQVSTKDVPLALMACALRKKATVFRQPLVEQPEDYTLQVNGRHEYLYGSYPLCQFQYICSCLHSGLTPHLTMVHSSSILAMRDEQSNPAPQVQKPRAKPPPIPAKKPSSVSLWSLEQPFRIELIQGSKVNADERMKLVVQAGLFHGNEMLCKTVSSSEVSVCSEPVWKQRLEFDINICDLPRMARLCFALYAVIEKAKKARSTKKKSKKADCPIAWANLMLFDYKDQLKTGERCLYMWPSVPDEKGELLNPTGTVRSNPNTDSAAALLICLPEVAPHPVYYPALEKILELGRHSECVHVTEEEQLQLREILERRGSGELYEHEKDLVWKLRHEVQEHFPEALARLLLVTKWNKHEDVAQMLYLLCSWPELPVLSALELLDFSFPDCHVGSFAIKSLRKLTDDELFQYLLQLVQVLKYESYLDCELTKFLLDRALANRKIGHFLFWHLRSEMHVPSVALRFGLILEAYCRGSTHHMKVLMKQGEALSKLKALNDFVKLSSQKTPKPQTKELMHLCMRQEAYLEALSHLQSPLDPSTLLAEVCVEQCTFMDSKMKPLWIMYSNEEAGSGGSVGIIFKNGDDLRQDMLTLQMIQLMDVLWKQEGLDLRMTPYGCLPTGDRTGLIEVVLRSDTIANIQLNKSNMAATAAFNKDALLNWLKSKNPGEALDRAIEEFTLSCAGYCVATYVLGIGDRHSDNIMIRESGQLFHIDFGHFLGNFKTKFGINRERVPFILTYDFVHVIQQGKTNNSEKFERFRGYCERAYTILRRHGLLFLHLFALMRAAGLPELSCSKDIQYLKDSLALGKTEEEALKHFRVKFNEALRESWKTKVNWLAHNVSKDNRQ
Chain of UniProt Q9H2X6 (whole entry, looked up): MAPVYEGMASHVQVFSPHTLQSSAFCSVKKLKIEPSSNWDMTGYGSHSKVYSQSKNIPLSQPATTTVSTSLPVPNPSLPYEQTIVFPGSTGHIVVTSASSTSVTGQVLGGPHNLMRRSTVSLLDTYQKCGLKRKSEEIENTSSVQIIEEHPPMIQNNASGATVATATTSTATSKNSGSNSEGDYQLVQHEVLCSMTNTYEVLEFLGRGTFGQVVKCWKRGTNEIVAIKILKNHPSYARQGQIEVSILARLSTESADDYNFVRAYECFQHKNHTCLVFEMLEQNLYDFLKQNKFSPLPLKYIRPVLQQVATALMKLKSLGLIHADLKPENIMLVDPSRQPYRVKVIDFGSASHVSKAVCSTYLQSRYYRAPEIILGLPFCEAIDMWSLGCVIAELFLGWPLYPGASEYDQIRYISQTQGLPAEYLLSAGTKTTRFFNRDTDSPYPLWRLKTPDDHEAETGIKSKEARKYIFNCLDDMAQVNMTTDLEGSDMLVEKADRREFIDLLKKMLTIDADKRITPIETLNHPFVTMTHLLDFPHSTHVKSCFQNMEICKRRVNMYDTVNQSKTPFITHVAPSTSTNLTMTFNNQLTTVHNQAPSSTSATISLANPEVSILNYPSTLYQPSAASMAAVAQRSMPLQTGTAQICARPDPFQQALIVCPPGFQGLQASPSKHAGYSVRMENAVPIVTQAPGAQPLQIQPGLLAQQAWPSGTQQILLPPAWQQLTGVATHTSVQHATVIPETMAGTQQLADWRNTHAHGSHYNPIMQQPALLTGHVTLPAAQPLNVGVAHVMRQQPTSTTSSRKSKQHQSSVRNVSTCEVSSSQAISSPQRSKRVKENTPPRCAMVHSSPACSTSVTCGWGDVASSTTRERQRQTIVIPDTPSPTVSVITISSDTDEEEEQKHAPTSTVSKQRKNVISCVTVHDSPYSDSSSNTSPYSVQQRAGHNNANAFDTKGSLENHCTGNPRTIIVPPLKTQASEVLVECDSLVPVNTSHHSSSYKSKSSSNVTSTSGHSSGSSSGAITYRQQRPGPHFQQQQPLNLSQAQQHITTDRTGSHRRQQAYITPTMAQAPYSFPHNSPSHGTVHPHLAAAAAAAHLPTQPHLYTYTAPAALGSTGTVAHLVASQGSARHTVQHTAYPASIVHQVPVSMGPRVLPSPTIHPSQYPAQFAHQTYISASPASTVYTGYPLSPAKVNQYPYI
Chain of UniProt P10721 (whole entry, unmodified, looked up): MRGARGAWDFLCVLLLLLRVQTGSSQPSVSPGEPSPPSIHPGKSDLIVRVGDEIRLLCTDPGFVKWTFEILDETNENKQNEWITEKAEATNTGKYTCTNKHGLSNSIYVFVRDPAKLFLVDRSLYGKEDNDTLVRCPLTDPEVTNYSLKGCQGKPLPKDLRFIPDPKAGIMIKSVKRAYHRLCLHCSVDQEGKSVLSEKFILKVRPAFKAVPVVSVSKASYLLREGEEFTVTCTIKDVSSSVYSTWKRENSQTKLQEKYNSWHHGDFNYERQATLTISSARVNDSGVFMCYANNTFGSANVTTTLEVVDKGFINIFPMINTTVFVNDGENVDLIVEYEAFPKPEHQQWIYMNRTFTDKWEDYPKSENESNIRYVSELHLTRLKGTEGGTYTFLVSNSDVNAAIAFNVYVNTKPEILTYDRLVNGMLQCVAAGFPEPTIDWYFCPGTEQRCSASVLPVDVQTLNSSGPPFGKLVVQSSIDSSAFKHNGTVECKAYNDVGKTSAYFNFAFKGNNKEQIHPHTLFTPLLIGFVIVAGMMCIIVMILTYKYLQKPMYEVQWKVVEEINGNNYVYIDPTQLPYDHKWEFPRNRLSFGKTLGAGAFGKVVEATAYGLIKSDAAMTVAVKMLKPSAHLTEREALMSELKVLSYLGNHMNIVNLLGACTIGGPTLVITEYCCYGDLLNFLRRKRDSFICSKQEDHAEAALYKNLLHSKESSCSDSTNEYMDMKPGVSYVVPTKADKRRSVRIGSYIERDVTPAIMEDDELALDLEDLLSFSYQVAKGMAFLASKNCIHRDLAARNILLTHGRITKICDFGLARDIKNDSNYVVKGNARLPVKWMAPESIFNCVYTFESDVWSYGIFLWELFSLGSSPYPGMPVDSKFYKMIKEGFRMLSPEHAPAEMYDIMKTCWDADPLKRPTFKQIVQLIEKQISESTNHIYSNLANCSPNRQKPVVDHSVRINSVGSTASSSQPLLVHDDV
Chain of UniProt P48729 (whole entry, looked up): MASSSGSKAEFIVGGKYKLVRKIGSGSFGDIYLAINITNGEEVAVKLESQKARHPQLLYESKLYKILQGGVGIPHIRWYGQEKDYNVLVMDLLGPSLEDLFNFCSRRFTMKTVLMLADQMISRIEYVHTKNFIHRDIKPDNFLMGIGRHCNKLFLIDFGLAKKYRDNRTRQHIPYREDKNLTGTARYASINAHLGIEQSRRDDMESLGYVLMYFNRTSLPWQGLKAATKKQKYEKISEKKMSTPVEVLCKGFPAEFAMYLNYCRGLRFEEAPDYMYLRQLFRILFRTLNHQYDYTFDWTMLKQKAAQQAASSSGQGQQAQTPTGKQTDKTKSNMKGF
Chain of UniProt Q96BR1 (whole entry, looked up): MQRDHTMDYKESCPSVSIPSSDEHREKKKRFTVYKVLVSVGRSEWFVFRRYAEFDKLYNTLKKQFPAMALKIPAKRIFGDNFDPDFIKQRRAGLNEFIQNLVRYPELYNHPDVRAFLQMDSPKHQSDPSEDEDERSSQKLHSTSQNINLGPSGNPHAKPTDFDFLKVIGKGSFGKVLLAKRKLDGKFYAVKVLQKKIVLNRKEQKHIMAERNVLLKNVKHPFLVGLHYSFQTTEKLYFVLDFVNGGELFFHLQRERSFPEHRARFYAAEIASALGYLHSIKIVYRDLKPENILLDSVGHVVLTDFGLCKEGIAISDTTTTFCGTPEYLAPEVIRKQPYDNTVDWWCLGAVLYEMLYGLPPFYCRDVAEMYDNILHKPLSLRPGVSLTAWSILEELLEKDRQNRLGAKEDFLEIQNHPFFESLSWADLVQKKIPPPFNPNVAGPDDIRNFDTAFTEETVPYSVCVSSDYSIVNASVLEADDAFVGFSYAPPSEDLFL

Sample 1 — observed: enzyme activity; action: inhibitor; concentration: 0.5 µM; relative to: control
Target: Tyrosine-protein kinase Lyn, isoform B (LYN, Homo sapiens, UniProt P07948)
Chain of UniProt P07948 (whole entry, looked up): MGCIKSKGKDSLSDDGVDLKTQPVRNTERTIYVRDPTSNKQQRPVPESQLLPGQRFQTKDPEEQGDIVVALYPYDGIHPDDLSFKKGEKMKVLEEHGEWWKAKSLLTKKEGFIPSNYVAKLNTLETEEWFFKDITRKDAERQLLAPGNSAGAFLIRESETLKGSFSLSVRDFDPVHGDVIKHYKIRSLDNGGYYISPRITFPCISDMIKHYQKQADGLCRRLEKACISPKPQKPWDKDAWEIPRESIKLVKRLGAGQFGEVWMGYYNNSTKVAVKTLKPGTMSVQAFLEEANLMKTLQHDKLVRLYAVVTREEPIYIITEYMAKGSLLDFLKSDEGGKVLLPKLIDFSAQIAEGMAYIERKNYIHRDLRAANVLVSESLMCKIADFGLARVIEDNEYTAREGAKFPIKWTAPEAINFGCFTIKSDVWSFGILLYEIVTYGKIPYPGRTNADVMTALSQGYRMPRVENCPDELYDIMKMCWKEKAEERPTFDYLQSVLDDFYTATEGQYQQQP
Structure (SMILES)	remaining activity [%]
Cc1cc2ncc(-c3ccccc3)nc2cc1C	100
COc1cc2ncnc(Nc3ccc(O)c(Br)c3)c2cc1OC	60
N#Cc1c(NC(=O)c2cccc3ccccc23)sc2c1CCCC2	87
CN([C@@H](Cc1ccc(OS(=O)(=O)c2cccc3cnccc23)cc1)C(=O)N1CCN(c2ccccc2)CC1)S(=O)(=O)c1cccc2cnccc12	92.1
O=C1c2ccccc2-c2n[nH]c3cccc1c23	96.6
c1ccc(-c2[nH]ncc2-c2ccnc3ccccc23)nc1	100
Cc1nc2cc3nc(-c4cccs4)cnc3cc2n1C	117
Nc1cccc(-c2cc3c(Oc4cccc(O)c4)ncnc3[nH]2)c1	21.4
Cc1cn(-c2cc(NC(=O)c3ccc(C)c(Nc4nccc(-c5cccnc5)n4)c3)cc(C(F)(F)F)c2)cn1	50.7
CCN(CC)C(=O)c1ccc(Nc2nc(OCC3CCCCC3)c3[nH]cnc3n2)cc1	89.7
O=C1Nc2ccc(Cl)cc2C1=Cc1cc(Cl)c(O)c(Cl)c1	87.5
C[C@@H]1CCN(C(=O)CC#N)C[C@@H]1N(C)c1ncnc2[nH]ccc12	98.6
CCOc1nc(NC(=O)Cc2cc(OC)ccc2OC)cc(N)c1C#N	93.3
O=C(Nc1cccc(Nc2nccc(Nc3cccc(C(F)(F)F)c3)n2)c1)C1CC1	99.9
CCN(CC)CCNC(=O)c1c(C)[nH]c(/C=C2\C(=O)Nc3ccc(Cl)cc32)c1C	21.9
N#C/C(=C\c1ccc(O)c(O)c1)C(=O)NCc1ccccc1	105

Sample 2 — observed: cell-free assay; technique: competition with immobilised ligand; concentration: 1 µM
SMILES: COc1ccc2c(O[C@@H]3C[C@H]4C(=O)N[C@]5(C(=O)O)CC5/C=C\CCCCC[C@H](NC(=O)OC5CCCC5)C(=O)N4C3)cc(-c3csc(NC(=O)C(C)C)n3)nc2c1C (stereo partly drawn)
target	remaining binding
Homeodomain-interacting protein kinase 2 (HIPK2, Homo sapiens, UniProt Q9H2X6)	68%
Phosphatidylinositol 4,5-bisphosphate 3-kinase catalytic subunit delta isoform (PIK3CD, Homo sapiens, UniProt O00329)	100%
Casein kinase I isoform alpha (CSNK1A1, Homo sapiens, UniProt P48729)	68%
Rho-associated protein kinase 1 (ROCK1, Homo sapiens, UniProt Q13464)	98%
Serine/threonine-protein kinase Sgk3 (SGK3, Homo sapiens, UniProt Q96BR1)	75%
Serine/threonine-protein kinase BRSK1 (BRSK1, Homo sapiens, UniProt Q8TDC3)	85%
Fibroblast growth factor receptor 2 (FGFR2, Homo sapiens, UniProt P21802)	96%
SNF-related serine/threonine-protein kinase (SNRK, Homo sapiens, UniProt Q9NRH2)	80%
Mast/stem cell growth factor receptor Kit (KIT, Homo sapiens, UniProt P10721, L576P)	90%
Serine/threonine-protein kinase 3 (STK3, Homo sapiens, UniProt Q13188)	86%

Sample 3 — technique: RNA Bind-n-Seq; molecule type: RNA; medium: in vitro; concentration: not given; relative to: input RNA pool; direction: higher = stronger binding
Target: RING finger protein unkempt homolog, zinc fingers 1-6, GST-SBP tag (UNK, Homo sapiens, UniProt Q9C0B0, residues 30-357)
Chain of UniProt Q9C0B0 (30-357, looked up): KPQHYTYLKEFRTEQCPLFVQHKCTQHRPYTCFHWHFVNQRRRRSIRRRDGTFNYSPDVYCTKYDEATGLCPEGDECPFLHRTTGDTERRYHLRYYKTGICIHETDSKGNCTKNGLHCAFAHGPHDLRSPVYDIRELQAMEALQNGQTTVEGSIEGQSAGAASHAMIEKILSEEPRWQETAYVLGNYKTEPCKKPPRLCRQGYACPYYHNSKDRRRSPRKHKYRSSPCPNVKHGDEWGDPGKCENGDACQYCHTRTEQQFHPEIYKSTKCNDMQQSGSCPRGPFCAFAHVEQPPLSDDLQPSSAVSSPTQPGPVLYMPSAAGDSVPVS
Setting: RNA with constant flanks, human and mouse sites, ends assumed
Oligonucleotide	bound/input enrichment
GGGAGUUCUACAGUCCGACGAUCUCUCUCAUUAAACCAACCAGUAAAAGCGUAUCCUAUUUUUUUGCACAAGGUGUUUCAUUUUCGUUUUUAUGGGAAACCAAGGGAAAAGCACAUUGCGAUCCAUUCAGUGUUUAACUGUCGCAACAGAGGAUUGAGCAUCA	0.369 ratio
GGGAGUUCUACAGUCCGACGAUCAAGCUCCCGAAGGCAUUAUACCCGGUCACGGUCUCGCUCCCGCUCCCAUAGACGAUCACGUAGCAGGUCUUACAGUCGAGAUUAUCGUAGACGGCACAGCCACAGCCAUUCUCCCAUGUCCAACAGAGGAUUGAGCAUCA	1.18 ratio
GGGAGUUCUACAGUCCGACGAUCGCUAAAGAGUCCAUGGAUAAGAACAAGAUGGGCUUGAAAGGCUAUAAAACCCCUUACACCGAUGUAAAUAUUGUGACCAUUCGAGAGAACACAGAAGGAGAAUACAGUGGAAUUGAGCAUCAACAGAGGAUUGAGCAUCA	0.23 ratio
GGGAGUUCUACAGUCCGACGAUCAUAUACUAUUUAUUAUAGCAUUUUGAUACCUCAUUCCGUUUACACAUCUCAAAAGCCGCUUAGUAAUUCUCUUAUUAUUUAAAGAACCACUACACUAGAGAAUGGAAUCUACUGUGGCAACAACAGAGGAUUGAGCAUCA	0.795 ratio
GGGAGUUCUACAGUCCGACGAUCGGUGGCAAGGCCAAGAAGAAGAAGUGGUCCAAAGGCAAAGUUCGGGACAAGUUGAACAAUCUUGUCCUGUUCGACAAAGCGACAUACGACAAGCUCUGUAAGGAGGUUCCGAACUAUAAGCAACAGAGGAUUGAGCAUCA	0.182 ratio
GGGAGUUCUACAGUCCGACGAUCGAUGAUGAUCCUUACUAUUAUUAUUAUAAGUCCAGGAGAAAUCGCAGUAAAUUGAGGAAAAAGCUUGUUCCAUCCACAAAAAAAGGAAAAAGUCAACCAUUUAUCAAUCCCGAUUCACAACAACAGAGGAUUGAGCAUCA	0.109 ratio
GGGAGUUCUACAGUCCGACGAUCAAGGAACUGGAAGUACCUCAUUUUCACCACGAGCUUGUAUAUGAAGCCAUUGUAAUGGUUUUAGAGUCAACUGGAGAAAGUGCAUUCAAGAUGAUCUUAGAUUUAUUAAAAUCCUUGUGGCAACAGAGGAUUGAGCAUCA	0.548 ratio
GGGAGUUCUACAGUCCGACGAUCACUAACUCCUACUGCCGACGAACCGAAAAAUAAUUAAUGCAGAGGAGAUUUAUGUCUUAGCCAUAACUCCAGUUGUACAACUCAAUCGCCCCAUUCUCUUUUACGGUUCAAAAUGUACUGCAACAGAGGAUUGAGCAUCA	0.208 ratio

Sample 4 — target: CEBPB, bZIP domain (human); technique: DHFR protein complementation; medium: yeast; relative to: wild-type JUN-FOS pair; direction: higher = stronger binding
Setting: single substitutions, most at no-binding floor
Starting sequence: JUN, bZIP domain (human); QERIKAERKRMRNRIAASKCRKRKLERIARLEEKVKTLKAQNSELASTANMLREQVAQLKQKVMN; partner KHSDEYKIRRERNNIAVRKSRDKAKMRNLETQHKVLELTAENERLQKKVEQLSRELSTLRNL
Substitution	binding fitness
K36R	-1.12 natural log
K34G	-1.44 natural log
L31T	-1.44 natural log
A49T	-1.35 natural log
L45R	-1.44 natural log
E32L	-1.42 natural log
S47I	-1.35 natural log
L45G	-1.51 natural log

For quick reference, copied from above (sample 2):
target	remaining binding
Casein kinase I isoform alpha (CSNK1A1, Homo sapiens, UniProt P48729)	68%
Serine/threonine-protein kinase BRSK1 (BRSK1, Homo sapiens, UniProt Q8TDC3)	85%
Rho-associated protein kinase 1 (ROCK1, Homo sapiens, UniProt Q13464)	98%
SNF-related serine/threonine-protein kinase (SNRK, Homo sapiens, UniProt Q9NRH2)	80%
Phosphatidylinositol 4,5-bisphosphate 3-kinase catalytic subunit delta isoform (PIK3CD, Homo sapiens, UniProt O00329)	100%
Fibroblast growth factor receptor 2 (FGFR2, Homo sapiens, UniProt P21802)	96%
